Measurements gathered from unrelated publications.
A part holds a random share of what one study measured.

Set 1 — method: protein binding microarray; form: double-stranded DNA, one strand shown; matrix: in vitro; concentration: not given; reference: not given; direction: higher = stronger binding
Target: Histone acetyltransferase KAT6A, winged helix 1, GST fusion (KAT6A, Homo sapiens, UniProt Q92794, residues 1-85)
Setting: 8-mer, flanks averaged, mean of 2 arrays, mostly near background
Target sequence (chain): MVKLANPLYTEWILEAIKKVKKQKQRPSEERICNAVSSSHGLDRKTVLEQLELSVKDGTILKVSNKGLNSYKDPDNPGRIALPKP
Oligonucleotide | E-score
ACATGCAA | -0.191
AGGAGACA | -0.133
CACATTTA | -0.167
CTCTTTGC | -0.0101
AAACTGAA | -0.0892
CTGATGTC | -0.092
GAGTGCTA | -0.192
TGCTACAA | -0.222
TGAACAAA | -0.0518
GAATCGTA | -0.0614
AGTTCGAG | -0.169
CGCCAACG | 0.195
TGCATAAA | -0.208
ATAGGTGC | -0.0468
ACACATCC | 0.00502
TCCAGTCA | -0.00877

Set 2 — method: RNA Bind-n-Seq; form: RNA; matrix: in vitro; concentration: 365 nM; reference: no-protein control; direction: higher = stronger binding
Target: RNA binding protein fox-1 homolog 2, RRM domain, GST-SBP tag (RBFOX2, Homo sapiens, UniProt O43251-10, residues 100-194)
Setting: natural RNA segment, single round, ends assumed
Shared flanks, not repeated: GGGAGUUCUACAGUCCGACGAUC … UGGAAUUCUCGGGUGCCAA
Construct (chain): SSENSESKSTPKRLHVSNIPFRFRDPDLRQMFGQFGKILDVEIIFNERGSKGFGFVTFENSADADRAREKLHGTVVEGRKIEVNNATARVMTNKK
Oligonucleotide | RBNS enrichment (R)
UGUCUGCUUAACAAACUGUCUUUGUGAGUACAGAGAUUGGGUUUACCACUUCUGCUGAGGAGACCACUUAAAAUUCAUUCCUGAGUUUCCACUGUGGGAGAAUACCCAUG | 0.311
GUUGGGGCGGGUGAGCCAAAGCGGCCCCCCAUGGUGUCUACCUGAGGGGCAGGGAACCGCCUGCCUGUGCACUCACGCCACCCCCCAGCCCACAAAGAGCCCAUCUGAGA | 0.294
CCUUCCUAGACCCUUGGACUCUCAGAUGCAGGGCCCUUGGCUCUGGCCUCUCACCCCCAAGGCUGUCUCUGGCCCUGCCGAGCCUAUGGGAGUCCCGGGACAGAGUGCCC | 0.255
AGCAUGGGGGGCAGGAGCCAGGGAGUCUAUUAGGUUCUAACCAACCUAGUUUUCAUUGUUGACAAGUGAGGCCAGGCUUCCACUCGACCAAAAGCUAAGGAUUGCCACCC | 1.56
AGUUUAUAGCAUACAAAAAUUAUACUGCUCUUCCCAGUAAGGGACUAAAAGGACAUUUGAAAUCUUUACAUUUUAGAUGUUUUUGUGAAUUAUAAAUAUCUCCUUUUUCC | 0.979
ACUCACAUGACAGAGCAACUCUGAAUGCAAAGUGACAUCUUCACAAAUGCCAUGGCCAUUGCUGACCCAUGAUUCAGCUAAGUUAAGCAGUCAUAAGGAAAGAAUUACGU | 0.272
GCUACCUCCGAUGACAGAAACGUGCUUUUACUGUAGGUAAAACCAUAAGAAAAGAAAAUAAUCUCAAUUAUUUUCAGAGCUAAAGUUUAUAUUGAUCUUACCAAAUCAAC | 0.651
CCAGGUGUAGGGCAUGUUCAUGAAUAUCAAAUCUUUUGAUGCUGGACCCAAGAGAGGAAAAGUUGUAGCUAAAUGUUGAUUUACUUAUAACUAGACGUCUAUGUGAGAAA | 0.585
GAGAAGAGCUUGCACAGCCAACGAGACACAUUGCCUUCUGGAGCUGGGAGACAAAGGAGGAAUUUACUUUCUUCACCAAGUGCAAUAGAUUACUGAUGUGAUAUUCUGUU | 0.317
AGGUCUAGUGUGUAUGGAUCUGGGAUCUCCGCCCUUGAGGCAGAGACGGGAAGAUCAGGAGUUCAAGGUCUUAGCUACAUAGUAAGUUUGAAGCCAGCCUGGCUACUUGA | 0.754
UUUGUACUAAAGUUUAUAGGUCUGUGCCAGCUAGAGAGAAGUUGCUGUCAUUACCAGUUGUGGUCCUAGCAUCUAACCCUGAAACCAUCCUAGGUGACAUUUUUAGAAUU | 0.293
UGAUUAUCUGCAGUUAAGUAGAUGACAGCUAUUCUACAUCAGACUUGAUUUUUGUCAGCUAAUUACAUAAUUGGUAAGCUAUAAUUGAAACCUUAUGGCUUAAAAUUCCU | 0.411

Set 3 — method: RNA Bind-n-Seq; form: RNA; matrix: in vitro; concentration: 1 µM; setting: whole 134-nt RNA, ends assumed; with: 150 mM KCl; reference: input library; direction: higher = stronger binding
Target: Ras GTPase-activating protein-binding protein 1, RRM domain (G3BP1, Homo sapiens, UniProt Q13283)
Chain of UniProt Q13283 (whole entry, looked up): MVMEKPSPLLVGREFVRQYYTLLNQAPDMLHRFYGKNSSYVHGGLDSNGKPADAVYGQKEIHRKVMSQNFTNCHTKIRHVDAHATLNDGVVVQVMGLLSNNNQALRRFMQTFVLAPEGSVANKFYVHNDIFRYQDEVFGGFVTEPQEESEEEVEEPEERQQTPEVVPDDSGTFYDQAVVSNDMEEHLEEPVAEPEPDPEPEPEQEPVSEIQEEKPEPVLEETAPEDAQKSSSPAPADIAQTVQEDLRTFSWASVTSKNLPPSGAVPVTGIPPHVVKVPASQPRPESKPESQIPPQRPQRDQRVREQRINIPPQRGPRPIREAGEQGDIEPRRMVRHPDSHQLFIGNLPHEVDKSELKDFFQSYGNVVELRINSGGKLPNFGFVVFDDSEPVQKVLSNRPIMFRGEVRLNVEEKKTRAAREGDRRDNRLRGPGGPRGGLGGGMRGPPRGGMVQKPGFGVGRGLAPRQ
Shared flanks, not repeated: GGGAGUUCUACAGUCCGACGAUC … UGGAAUUCUCGGGUGUCAAGG
Oligonucleotide | log2 enrichment
CUCAAGUCCUGUGCUACACAUCGUAUGUACCGAAUCGGCCGGGGCCGGGGCCGGAAAGUAUUAUGUUACGCCGUUCGGAUCUGCACUUCC | -1.37
UGGGAGGUGGAUUUUGUUUAUUUUUGUAGCUCAUUUCCAGGGGUGGGAAUUUUUUUUUAAUAUGUGUCAUGAAUAAAGUUGUUUUUGAAA | 1.92
UCGGCUACACUGCCCGGAGAAUUCUCAAUGAGGAUGGCAGCCCUAACCUGGACUUCAAGCCUGAAGACCAGCCCCAUUUUGACAUCAAGG | -0.0215
CCUGUGCUACACAUCGUAUGUACCGAAUCGGGGCCCCCCGGGGCCCCCCGGGCCCCCCGGGAAAGUAUUAUGUUACGCCGUUCGGAUCUG | -0.59
AGUCCUGUGCUACACAUCGUAUGUACCGAAUCGGGUUUUUUUGGGAAAGGGUUUGGGAAAGUAUUAUGUUACGCCGUUCGGAUCUGCACU | 0.278
UUCCCACAGCCCAAAAAUCUUCUCAACAGUGUGAUUGGAAGAGCCCUCGGCAUCUCACAUGCAAAAGACAAACUAGUCUACGUGCACACA | -0.019
GUCCUGUGCUACACAUCGUAUGUACCGAAUCGGUUUUUUUGGUUUUUGGUUUUUUUGGAAAGUAUUAUGUUACGCCGUUCGGAUCUGCAC | -0.229
GUCCUGUGCUACACAUCGUAUGUACCGAAUCGGGGAAAGGGGAAAAAAAGGGGAGGGGAAAGUAUUAUGUUACGCCGUUCGGAUCUGCAC | 0.905
AGUCCUGUGCUACACAUCGUAUGUACCGAAUCGGGCCCCCGGGCCCCCGGCCCCCGGAAAGUAUUAUGUUACGCCGUUCGGAUCUGCACU | -0.375
CAAGUCCUGUGCUACACAUCGUAUGUACCGAAUCGGGCCCGGGCCCGGGCCCGGGGAAAGUAUUAUGUUACGCCGUUCGGAUCUGCACUU | -0.736
CCUGUGCUACACAUCGUAUGUACCGAAUCGGGUUUUUUUGGUUUUUUUGGUUUUUUUGGGAAAGUAUUAUGUUACGCCGUUCGGAUCUGC | -0.221
UUGUUCUGGCAUAAACAUAACAUUGAGAAGUCCCUUGCUGAUCUCCCUAAUUUCACUCCCUUUCCGGAUGAGUGGACAGUGGAAGAUAAA | -0.0736
CCUGUGCUACACAUCGUAUGUACCGAAUCGGAAAAAAAGGGAAAAAAAGGAAAAAAAGGGAAAGUAUUAUGUUACGCCGUUCGGAUCUGC | 0.182
CAAGUCCUGUGCUACACAUCGUAUGUACCGAAUCGGAAAGGGGAAAGGGAAAGGGAAAGUAUUAUGUUACGCCGUUCGGAUCUGCACUUC | 0.162

Set 4 — method: RNA Bind-n-Seq; form: RNA; matrix: in vitro; concentration: 100 nM; reference: input RNA pool; direction: higher = stronger binding
Target: RING finger protein unkempt homolog, zinc fingers 1-6, SBP tag (UNK, Homo sapiens, UniProt Q9C0B0, residues 30-357)
Chain of UniProt Q9C0B0 (30-357, looked up): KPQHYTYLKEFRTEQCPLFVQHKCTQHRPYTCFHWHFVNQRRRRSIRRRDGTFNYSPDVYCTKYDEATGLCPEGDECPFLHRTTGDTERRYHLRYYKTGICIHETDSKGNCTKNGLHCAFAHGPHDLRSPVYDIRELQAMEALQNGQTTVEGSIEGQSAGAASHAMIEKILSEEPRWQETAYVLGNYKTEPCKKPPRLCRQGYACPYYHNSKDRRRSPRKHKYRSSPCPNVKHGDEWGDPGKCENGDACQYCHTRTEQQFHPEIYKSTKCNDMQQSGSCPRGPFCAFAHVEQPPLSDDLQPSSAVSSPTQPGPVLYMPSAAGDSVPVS
Setting: RNA with constant flanks, vertebrate orthologous sites, ends assumed
Shared flanks, not repeated: GGGAGUUCUACAGUCCGACGAUC … CAACAGAGGAUUGAGCAUCA
Oligonucleotide | bound/input enrichment [ratio]
UCCUCAACUUGUUCUAGCUUGUGAUCCUUCAAAGUUGGGUCAGGCAUUAAUGCUAGGUACUAGAAAUUUUCAUUUCUCUAUUGCCAUUGAUCAGAGAGACAGGCAUGAAAAACAGGAAUA | 0.241
AUCUUCAACUUGUUCUAGCUUGUGAUCCUUCAAGUUGGGUCAUGCAUUAGUGCUAGAUACUAGAAAUUGUCAUUUCUCUUUCCACUGAGUAAGAGACAGACAUUAAAAACAAAUGUUCAG | 0.388
UCAGAUGGUGGUUGUACAUUAUUCAUUUAGAAAAUAUAAAAAUUCAUUUUGUUUUGAAGCUAGGCAUUAAACUGGAAUAGCAGUUUUACCCCUGAGAAUGGGGCCCUUCCCUUGACAUUC | 3.4
CCAGCCUUCCGUAUAGGGUCGGCCUUAAAUCUGUAGGAUUUAUGGCAAAUGUAUUAUAUAUAAUUGCAUUGAGUUUAAUAUUUUUUAUUACCCUGUAAAUGAAGAUGGCAUCUCCUACAU | 0.231
CCGGGUCCCCCCGCACCCACCCCAGGCCCAGGGACCAGGUGUUGCAUUGAGGACCUGCCUUUCAAACACUUUUUUAAAUUGUCCAGCGAGAGAUGUGACCAAAACAGCAUCUCAAAGUGG | 0.56
GUGUUGGUGCAGAGUGCUCUGUGCCAGUUGCUCAUCAUCCCUUUUUCAUACCAACAGCCCUAGUUACAGGAAUUUAAUAUUUUUAAAAAUUUACAUCGCUGUAUAUUCAAAGAUUUGUUU | 0.46
AAAGCCCCGAUUUUAGAUGUGAUAUUUAGGCUUUCAUUCCAUUGUUUUUGUCUUCUUGUUUAGAUACCGAUCUUUUAAAUUCUUGCAUUUUAGUAAGAAAGCUACCUUUUUAUGGAUGUU | 1.06
GCAAUGAAAAAGCAUCCCUUCUCCCAGCCCCCUUUUCACUAGGAGAUGCAAAGGUUACCAUAGAAGAGCAAUUAAACUCAAUAAAUUUAUCUUUUCAGGAUGAUCCAGACUCCAGUACCA | 0.84
AAACUUUUUUUUUUUAAUUUAAUUUUUUCCUUUCAGGGGUAAAGUUUGCUUUACCAAAAAUAGUGGUUGUAACAAAUUGAUCUGUUUUGGAUGUUGCUAUAGUGACAUGCAGUUCUCUAU | 1.14
CACAUCGGGUGAUAUUUGGCCUGGCCUUUCAGCUUAUGAUAAUAGUCCCAGAUCACCUCAUAGUCCUUCACCGAUUGCUACACCACCUAGUCAGAGUUCAUCUUGCUCUGAUGCCCCCAU | 0.707
ACUGAAUAGGCAUUUUACAUACCACAUCAAAGCCUUGUUGUUUUGUUUUUUACUUAUUUACUGCUUACCAGGUUUCUGCAUGAAAGACAAAGGACUUCCAUGCUUAAAGUUAAUAUGGUC | 0.631

Set 5 — method: aptamer microarray, sandwich; form: DNA with 2'F-ANA; matrix: in vitro; concentration: 200 nM; with: Cy3 exosite-II aptamer, 400 nM; direction: higher = stronger binding; oligonucleotide: GGTTGGTGTGGTTGG
Target: Prothrombin, mature alpha-thrombin (F2, Homo sapiens, UniProt P00734)
Setting: whole 15-mer aptamer, many near background
Modification | mean fluorescence intensity
2'F-ANA at 2 6 7 9 10 15 | 106 a.u.
2'F-ANA at 2 4 5 7 9 10 11 13 15 | 49 a.u.
2'F-ANA at 2 4 5 6 7 11 12 14 15 | 94.1 a.u.
2'F-ANA at 2 6 7 9 10 12 13 14 | 81.5 a.u.
2'F-ANA at 1 8 9 14 15 | 55.8 a.u.
2'F-ANA at 7 8 15 | 731 a.u.
2'F-ANA at 1 5 9 10 11 15 | 48.3 a.u.
2'F-ANA at 2 3 5 6 8 9 14 | 51.5 a.u.
2'F-ANA at 1 5 6 7 8 10 12 13 14 15 | 46.3 a.u.
2'F-ANA at 1 6 7 8 9 10 12 14 | 60.6 a.u.
2'F-ANA at 1 4 6 7 8 9 11 12 14 15 | 81.3 a.u.
2'F-ANA at 1 2 3 6 7 9 14 | 90.2 a.u.
2'F-ANA at 2 3 4 5 6 7 8 10 11 12 13 | 57 a.u.
2'F-ANA at 5 6 10 11 12 14 15 | 47.4 a.u.
2'F-ANA at 2 3 6 10 12 13 15 | 360 a.u.
2'F-ANA at 1 3 8 10 | 85.6 a.u.
2'F-ANA at 1 2 4 5 11 12 | 81.3 a.u.
2'F-ANA at 1 4 7 9 10 12 14 15 | 48.7 a.u.
2'F-ANA at 1 2 4 5 7 9 10 11 12 | 51.8 a.u.
2'F-ANA at 1 2 5 8 9 10 12 | 49.1 a.u.
2'F-ANA at 1 2 4 6 10 14 | 73.1 a.u.
2'F-ANA at 1 2 3 6 7 8 9 14 15 | 72.1 a.u.
